Measured values of several laboratories.
Every numbered part comes from another study and shows a few of its results, in no order.
Sequence of UniProt O23661 (whole entry, looked up): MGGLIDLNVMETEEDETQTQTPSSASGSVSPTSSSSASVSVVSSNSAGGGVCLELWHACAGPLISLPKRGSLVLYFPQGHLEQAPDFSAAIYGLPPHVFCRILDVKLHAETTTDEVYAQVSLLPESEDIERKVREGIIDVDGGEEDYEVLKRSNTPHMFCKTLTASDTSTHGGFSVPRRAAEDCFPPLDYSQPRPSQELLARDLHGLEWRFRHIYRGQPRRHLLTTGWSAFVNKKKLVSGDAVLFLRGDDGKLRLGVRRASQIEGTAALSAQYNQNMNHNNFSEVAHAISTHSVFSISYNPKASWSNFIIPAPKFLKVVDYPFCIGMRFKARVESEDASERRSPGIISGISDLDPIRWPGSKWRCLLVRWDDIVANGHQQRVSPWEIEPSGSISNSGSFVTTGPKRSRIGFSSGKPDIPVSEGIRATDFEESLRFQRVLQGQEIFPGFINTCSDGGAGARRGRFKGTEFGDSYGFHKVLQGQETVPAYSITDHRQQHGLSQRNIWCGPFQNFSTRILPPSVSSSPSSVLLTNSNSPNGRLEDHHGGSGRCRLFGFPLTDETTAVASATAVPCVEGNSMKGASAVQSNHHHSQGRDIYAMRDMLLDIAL
Sequence of UniProt Q9ZSY8 (whole entry, looked up): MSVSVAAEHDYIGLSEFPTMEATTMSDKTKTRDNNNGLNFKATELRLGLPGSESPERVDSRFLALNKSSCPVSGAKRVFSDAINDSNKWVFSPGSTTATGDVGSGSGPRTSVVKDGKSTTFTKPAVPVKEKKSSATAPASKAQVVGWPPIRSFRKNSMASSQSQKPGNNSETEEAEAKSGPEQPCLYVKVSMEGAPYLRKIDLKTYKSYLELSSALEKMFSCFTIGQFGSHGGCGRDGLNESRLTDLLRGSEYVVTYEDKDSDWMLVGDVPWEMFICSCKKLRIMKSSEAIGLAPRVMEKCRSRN

Sample 1 — technique: RNA Bind-n-Seq; molecule type: RNA; sample: in vitro; concentration: 365 nM; reference: no-protein control; direction: higher = stronger binding
Target: RNA binding protein fox-1 homolog 2, RRM domain, GST-SBP tag (RBFOX2, Homo sapiens, UniProt O43251-10, residues 100-194)
Notes: natural RNA segment, single round, ends assumed
Shared flanks, not repeated: GGGAGUUCUACAGUCCGACGAUC … UGGAAUUCUCGGGUGCCAA
Residues (chain): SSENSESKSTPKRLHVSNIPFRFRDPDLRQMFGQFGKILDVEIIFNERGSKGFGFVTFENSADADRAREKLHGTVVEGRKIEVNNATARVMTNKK
Strand	RBNS enrichment (R)
UGUUUUAUUCUUAAAUAAGCAAGCAAAACCUGCACAUUGGAUUCACGUGAGAUGAUAAUGAAAACUUUUAGUUUAAGAGUGAAGGGUUAAGUAACCUAACAGAGCUUUGA	0.341
CUCAUCCCUCAGCAGAAAAAUGUGGGCCUAAAAUGAGUUGUGUCACUCAGCAAACAUUUCCUGAGUACCUACUAUAUACCAAACUUAUAGAAAGACUAACUAGGGAACAA	0.303
GAAAUGAUUCUUAAGUUAUUGGUAAAAUAUAACUUUCUCAGUUUUUAAAAGUUUACAAAAUUUUUUUUUUUGUUUUGAGACAGAGUAUGGCUUUGUUACCCAGGCUGGAU	0.886
AAUCUAAAGCAAGAAUAUAAAAUAAUUUUAAGAAGCAUAUAAUUUCUUUUGAUAAAAAGUAACAAAAAUUUAAUGCAGAUCAAAGACCAAGGCUUGUAACCAAAACAAGC	0.795
AUUUUAUUAUUUUUUUCUUACAGAAAUAUUUUUAAAAAUUAAAGAAAAUCUCAAGUGAAAAAGAAUUAACCUGUUAAAUCAGAAUGGUUCUCUUUGACCCGUUCUGGUCU	0.576
GCAAAAAGUUAAGCCUGCUAAGUAUUCAGAUCCCUGUCAUUUACUUCUCAGCAGUCUCAUUCAAGCUAAGGCUUGCAUACUCAAUCUGUGCCGUAGUCUACACAUUUUUA	0.344

Sample 2 — technique: universal PBM; molecule type: double-stranded DNA, one strand shown; sample: in vitro; concentration: not given; direction: higher = stronger binding
Target: Sal-like protein 4, full length isoform B (SALL4, Homo sapiens, UniProt Q9UJQ4-2, residues 1-616)
Notes: 8-mer, flanks averaged, mean of replicates
Construct (chain): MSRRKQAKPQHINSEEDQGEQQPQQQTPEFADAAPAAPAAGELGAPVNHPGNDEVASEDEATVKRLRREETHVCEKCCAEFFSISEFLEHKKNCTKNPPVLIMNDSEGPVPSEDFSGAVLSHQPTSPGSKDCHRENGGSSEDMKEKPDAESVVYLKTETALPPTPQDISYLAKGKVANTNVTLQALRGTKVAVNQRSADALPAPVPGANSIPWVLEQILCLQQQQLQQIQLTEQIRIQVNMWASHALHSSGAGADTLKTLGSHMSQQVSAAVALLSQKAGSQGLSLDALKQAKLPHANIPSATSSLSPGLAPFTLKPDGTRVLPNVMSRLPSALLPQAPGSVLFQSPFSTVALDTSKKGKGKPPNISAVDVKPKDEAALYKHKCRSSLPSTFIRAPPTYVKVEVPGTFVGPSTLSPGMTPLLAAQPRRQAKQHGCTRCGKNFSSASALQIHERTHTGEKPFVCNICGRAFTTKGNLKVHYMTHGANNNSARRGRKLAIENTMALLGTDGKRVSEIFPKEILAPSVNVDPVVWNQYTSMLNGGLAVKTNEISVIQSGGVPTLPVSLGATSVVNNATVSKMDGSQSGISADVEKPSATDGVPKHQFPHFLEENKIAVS
Strand	E-score
TATCGCGA	0.00319
CGTCGTTA	0.0282
GGCTTGGA	-0.211
CGCGTGCC	-0.295
ATCAGGCG	-0.226
CCATTCCA	-0.112
GCGGATTA	0.0679

Other studies, line by line
ARF12: ARF12 500-593 (Arabidopsis thaliana, UniProt Q9XID4)
Sequence of UniProt Q9XID4 (whole entry, looked up): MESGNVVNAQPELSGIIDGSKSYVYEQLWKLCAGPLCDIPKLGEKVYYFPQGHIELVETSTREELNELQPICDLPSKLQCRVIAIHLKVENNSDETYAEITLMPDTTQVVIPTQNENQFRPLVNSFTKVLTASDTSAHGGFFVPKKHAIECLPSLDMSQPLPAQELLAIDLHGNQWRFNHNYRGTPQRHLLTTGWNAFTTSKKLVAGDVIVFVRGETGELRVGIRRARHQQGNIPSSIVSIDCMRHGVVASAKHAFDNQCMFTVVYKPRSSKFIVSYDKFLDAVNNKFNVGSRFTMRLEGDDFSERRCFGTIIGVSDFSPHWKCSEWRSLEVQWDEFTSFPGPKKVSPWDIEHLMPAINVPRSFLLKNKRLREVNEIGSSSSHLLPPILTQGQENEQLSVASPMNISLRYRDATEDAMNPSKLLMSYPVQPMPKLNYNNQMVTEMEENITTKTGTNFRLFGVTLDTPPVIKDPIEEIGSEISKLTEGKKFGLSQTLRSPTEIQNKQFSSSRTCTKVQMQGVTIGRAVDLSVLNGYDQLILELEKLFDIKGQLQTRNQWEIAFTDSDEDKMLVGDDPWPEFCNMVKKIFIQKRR
Molecule	tested on	test	test system	conditions	scale	quantity	result
IAA27 (Arabidopsis thaliana, UniProt Q9ZSY8)	ARF12	two-hybrid	–	–	reference: out of 4 tests, higher = firmer interaction	positive tests	0
PhoQ, residues 284 288 289 292 302 303 ASHLAV	PhoP, residues 12 14 15 18 19 NQGLL (Escherichia coli, UniProt P23836)	Sort-seq, refers to: YFP reporter	E. coli	PhoQ-PhoP variant library, together with: 10 µM Mg2+	reference: high Mg2+ state, higher = stronger signaling	fold induction	3.26
ETT (Arabidopsis thaliana, UniProt O23661)	ARF12	two-hybrid	–	–	reference: out of 4 tests, higher = firmer interaction	positive tests	0

A few entries again (sample 1):
Strand	RBNS enrichment (R)
CUCAUCCCUCAGCAGAAAAAUGUGGGCCUAAAAUGAGUUGUGUCACUCAGCAAACAUUUCCUGAGUACCUACUAUAUACCAAACUUAUAGAAAGACUAACUAGGGAACAA	0.303
GAAAUGAUUCUUAAGUUAUUGGUAAAAUAUAACUUUCUCAGUUUUUAAAAGUUUACAAAAUUUUUUUUUUUGUUUUGAGACAGAGUAUGGCUUUGUUACCCAGGCUGGAU	0.886
